Measured values collected from several papers.
Lines come from different studies, so protocols differ. Numbers after ± are the reported error.
TDP1: Tyrosyl-DNA phosphodiesterase 1 (TDP1, Homo sapiens, UniProt Q9NUW8)
Chain of UniProt Q9NUW8 (whole entry, looked up): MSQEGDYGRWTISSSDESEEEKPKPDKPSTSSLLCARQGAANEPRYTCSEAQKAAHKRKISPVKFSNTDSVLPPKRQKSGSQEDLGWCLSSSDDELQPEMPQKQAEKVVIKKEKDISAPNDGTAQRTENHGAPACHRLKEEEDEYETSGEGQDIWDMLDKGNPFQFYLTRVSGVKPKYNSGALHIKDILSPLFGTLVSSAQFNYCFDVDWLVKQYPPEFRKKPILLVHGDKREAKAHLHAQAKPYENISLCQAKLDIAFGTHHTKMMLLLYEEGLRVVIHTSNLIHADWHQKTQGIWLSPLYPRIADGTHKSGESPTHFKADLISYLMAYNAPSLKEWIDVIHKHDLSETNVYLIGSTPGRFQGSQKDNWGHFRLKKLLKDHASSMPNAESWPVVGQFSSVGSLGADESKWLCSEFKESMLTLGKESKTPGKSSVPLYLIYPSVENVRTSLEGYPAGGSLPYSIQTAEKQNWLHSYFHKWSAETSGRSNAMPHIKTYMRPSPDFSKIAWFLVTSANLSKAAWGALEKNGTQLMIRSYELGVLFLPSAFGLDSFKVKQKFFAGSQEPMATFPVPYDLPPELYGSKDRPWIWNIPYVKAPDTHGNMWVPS

SMILES	target or system	test	setting	measurement	result
Cn1ncc(Cl)c1C=NOCc1ccc2nc(-c3ccccc3)c(Nc3ccc(C(=O)O)cc3)n2c1	TDP1	enzyme activity, inhibitor	100 µM, unpurified compound	inhibition	17.2%
N#CSCCCCCCOc1ccc2c(-c3ccccc3)cc(=O)oc2c1	WiDr, multidrug-resistant	sulforhodamine B		GI50	14000 ± 4000 nM
O=C(C[Se]C(=O)c1ccc2ccccc2c1)Nc1cccc(C(F)(F)F)c1	NCI60 melanoma subpanel	cell growth, inhibitor	five-dose	GI50	1700 nM
C=CC(=O)Oc1ccc(OC)c(-c2c[nH]c3ncc(-c4cncc(C(=O)N(C)C)c4)cc23)c1	Ba/F3 BCR-ABL wild type	cell proliferation	72 h	GI50	58.4 ± 5.8 nM
CCN(C(=O)c1cc(F)ccc1Oc1nncnc1N1CCC2(C1)CN([C@H](CCCN(C)CCOC)C(C)C)C2)C(C)C	MV4-11	cell growth or viability	7 days	GI50	9.1 nM
O=C(C[Se]C(=O)C12CC3CC(CC(C3)C1)C2)Nc1cccc(C(F)(F)F)c1	NCI60 leukaemia subpanel	NCI60 five-dose screen		GI50	8390 nM
Cc1c(Cl)c(=O)oc2cc(OCCCCCCSC#N)ccc12	WiDr, multidrug-resistant	sulforhodamine B		GI50	9700 ± 2900 nM
C=CC(=O)Nc1ccc(OC)c(-c2c[nH]c3ncc(-c4cncc(C(=O)N(C)C)c4)cc23)c1	Ba/F3 BCR-ABL wild type	cell proliferation	72 h	GI50	> 1000 nM
O=C(C[Se]C(=O)c1ccc2ccccc2n1)Nc1cccc(C(F)(F)F)c1	NCI60 leukaemia subpanel	NCI60 five-dose screen		GI50	2000 nM
COc1ccc(O)cc1-c1c[nH]c2ncc(-c3cncc(C(=O)N(C)C)c3)cc12	Ba/F3 BCR-ABL wild type	cell proliferation	72 h	GI50	29.9 ± 11.1 nM
O=C(O)c1ccc(Nc2c(-c3ccccc3)nc3ccc(CON=Cc4ccc(-n5cncn5)cc4)cn23)cc1 (mixture of isomers)	TDP1	enzyme activity, inhibitor	100 µM, unpurified compound	inhibition	20.9%
